Experimental data gathered from unrelated publications.
Every numbered part comes from another study and shows a few of its results, in no order. Positions count from the first letter of the parent shown.

Sample 1
Target: CCNA1, cyclin fold, Cln2 fusion (human)
Technique: yeast growth competition, sequencing
Medium: yeast
Notes: weak parent motif
Relative to: not given
Reading: higher = stronger binding
Starting sequence: SAMHD1 docking peptide (human); ASKSRVQLFKDDP
Variant	normalised enrichment score
ASKSRVQLQKDDP [F9Q]	0.0389
ASKSAVQLFKDDP [R5A]	0.235
ASKSRVQLFTDDP [K10T]	0.275
ASKSRVTLFKDDP [Q7T]	0.256
AEKSRVQLFKDDP [S2E]	0.178
ASKSRVILFKDDP [Q7I]	-0.0681
ASKSRVQLIKDDP [F9I]	0.743
ASKSRVQAFKDDP [L8A]	-0.0975
ASKSRVKLFKDDP [Q7K]	0.523
ASKSRVQLFKRDP [D11R]	0.709
ASKQRVQLFKDDP [S4Q]	0.185
ASKSRTQLFKDDP [V6T]	0.51
ASKSRLQLFKDDP [V6L]	0.504
ASKSRVQLFRDDP [K10R]	0.374
AAKSRVQLFKDDP [S2A]	0.5

Sample 2
Target: ABI1, truncated, D143A, DHFR fusion (Arabidopsis thaliana)
Technique: DHFR PCA, deep sequencing
Medium: yeast
Notes: methotrexate growth selection, single substitutions
Together with: (+)-ABA 200 µM
Relative to: wild-type fitted maximum
Reading: higher = stronger binding
Starting sequence: PYL1, truncated, DHFR fusion (Arabidopsis thaliana); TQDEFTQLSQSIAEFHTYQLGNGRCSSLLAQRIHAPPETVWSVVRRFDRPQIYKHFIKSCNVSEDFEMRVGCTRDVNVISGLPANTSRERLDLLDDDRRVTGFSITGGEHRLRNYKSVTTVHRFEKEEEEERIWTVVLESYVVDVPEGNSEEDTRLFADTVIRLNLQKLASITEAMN; partner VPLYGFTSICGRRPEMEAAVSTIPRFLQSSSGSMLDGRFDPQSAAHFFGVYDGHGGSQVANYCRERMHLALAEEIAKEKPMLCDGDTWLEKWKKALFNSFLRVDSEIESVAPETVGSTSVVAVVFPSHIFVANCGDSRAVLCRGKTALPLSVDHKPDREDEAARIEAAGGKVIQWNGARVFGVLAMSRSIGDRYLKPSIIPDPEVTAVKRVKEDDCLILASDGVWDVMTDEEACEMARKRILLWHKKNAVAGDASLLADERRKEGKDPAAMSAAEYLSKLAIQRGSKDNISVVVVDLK
Variant	relative binding score [%]
R98G	93.7
S9I	76.7
Q51L	50.4
E14K	95.8
I172D	7.82
I133W	106
S11G	90
L138E	-4.49
S140V	-3.66
D97S	102
L82D	-0.925
M176G	98.9
I79D	53.6

Sample 3
Target: RING finger protein unkempt homolog, zinc fingers 1-6, GST-SBP tag (UNK, Homo sapiens, UniProt Q9C0B0, residues 30-357)
Sequence of UniProt Q9C0B0 (30-357, looked up): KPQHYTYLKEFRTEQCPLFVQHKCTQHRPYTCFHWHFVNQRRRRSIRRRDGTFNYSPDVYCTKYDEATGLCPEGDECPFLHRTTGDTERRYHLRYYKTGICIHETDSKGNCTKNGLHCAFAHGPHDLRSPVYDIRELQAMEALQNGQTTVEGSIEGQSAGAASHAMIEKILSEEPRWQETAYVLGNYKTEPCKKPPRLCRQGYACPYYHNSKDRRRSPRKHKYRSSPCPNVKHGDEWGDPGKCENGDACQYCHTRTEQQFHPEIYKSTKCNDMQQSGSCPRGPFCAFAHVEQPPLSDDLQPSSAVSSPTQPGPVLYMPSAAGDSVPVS
Technique: RNA Bind-n-Seq
Molecule type: RNA
Medium: in vitro
Tested at: not given
Notes: RNA with constant flanks, human and mouse sites, ends assumed
Relative to: input RNA pool
Reading: higher = stronger binding
Constant ends, left off below: GGGAGUUCUACAGUCCGACGAUC … CAACAGAGGAUUGAGCAUCA
Oligonucleotide	bound/input enrichment [ratio]
CAUUCUAGGCCAAGUGAGAGCUCGUCAGUUCCUUGGGAUAUCUCCAGCUCUAAGGAGGACAGUUUAUCCACAGUUGAAGAGGAGUCUGACUGCAAAUCUCCGUCAGCUGAUGACAAAGGG	0.149
GUUCAGACUUUGUACUCUCAGUCACCAGCCCUAGAAUUAGACAAAUUCCUUGAAGAUGUCAGGAAUGGGAUCUACCCUCUGACAGCCUUUGGGCUACCUCGGCCUCAGCAGCCACAGCAG	1.53
CUUAUCUUGGUAGCCAAUGCAAUCGUGGGUGUGUGGCAGGAAAGAAAUGCUGAAAAUGCAAUAGAAGCUCUUAAGGAAUAUGAGCCUGAAAUGGGCAAAGUGUAUCGACAGGACAGAAAG	0.515
UUAUACCAAGUUGAAUAUGCCAUGGAAGCUAUUGGACAUGCAGGCACCUGUUUGGGAAUUUUAGCAAAUGAUGGUGUUUUGCUUGCAGCAGAGAGACGCAACAUCCACAAGCUUCUUGAU	0.21
GUUCAAGAAGAGCUCCUGAAAGGCUUGGACAAUAAGAAUCCCAAGAUCAUAGUGGCCUGUAUAGAGACACUGAGGAAAGCCUUAAGUGAAUUUGGUUCCAAAAUCAUCUUGCUUAAGCCA	0.336
UGUAUACUGUUUUACCCAAACCCAGCAAAAAUGCAUGUGUCUGUCCACCAAAGGACAUGCACUAGAAUAUUUAUAGCCUAAAACUGCACAAAACAGAACUAUCUUAAGGCACAUGUGCAA	0.886
GGCACAAGAGAUGAUGACCUCUCAGCCACUGUUAACAUUAAACAUAAAGAAGGAAUCUACAGUAAGAGGGUAGUGACUAAGGCAUCCUUGCCAGUGGGAGAAAAACCCUUGCAGAAUGAA	0.25
GGCAUGUUGGAUAUGUGCGGCUUUGAUACUGGAGCUCUGGAUGUAAUUCGAAAUUUCACAUUAGAUAUGAUUUAACCAUAAGCAGCAGCACGAUCCAGAGAUCCAUUGCCAUCAGUGAUC	2.04
UUUUUUAGGAUUUGCCCUCUCUUUUCUCUCCUCCCAGGAAAGGGAGGGGAAAGAAUUGUAUUUUUUCCCAAGUCCUAAAUCAUCUAUAUGUUAAAUAUCCGUGCCGAUCUGUCUUGAAGG	0.383
AGUGCCUAUGAUUAUACAAUAUCACCCAUGGAGAAAGCCAUCGUGAAGACAGACAUUCAGAUAGCUGUCCCUUCUGGGUGCUAUGGAAGAGUAGCUCCACGUUCUGGCUUGGCUGUAAAG	0.103
ACCGAACGAAGAAGGGACGAGCUCUCUGAAGAGAUCAACAACUUAAGAGAGAAGGUCAUGAAGCAGUCGGAGGAGAACAACAACCUGCAGAGCCAGGUGCAGAAGCUCACAGAGGAGAAC	0.152

Sample 4
Substance: PhoQ, residues 284 288 289 292 302 303 SNGLAW
Technique: Sort-seq
Measured: YFP reporter
Medium: E. coli
Notes: PhoQ-PhoP variant library
Together with: 10 µM Mg2+
Relative to: high Mg2+ state
Reading: higher = stronger signaling
target	fold induction
PhoP, residues 12 14 15 18 19 AYFRS (Escherichia coli, UniProt P23836)	10.3
PhoP, residues 12 14 15 18 19 SFCSL (Escherichia coli, UniProt P23836)	13.2
PhoP, residues 12 14 15 18 19 HHYTI (Escherichia coli, UniProt P23836)	11.6

Excerpt of the above (sample 1):
Variant	normalised enrichment score
ASKSAVQLFKDDP [R5A]	0.235
ASKSRVQLFTDDP [K10T]	0.275
ASKSRVTLFKDDP [Q7T]	0.256
AEKSRVQLFKDDP [S2E]	0.178
